# Experimental data of several laboratories.
# Parts stem from different laboratories: compare values within a part only. Substitutions count along the parent as printed.
# UniProt Q8H174, sequence (whole entry, looked up): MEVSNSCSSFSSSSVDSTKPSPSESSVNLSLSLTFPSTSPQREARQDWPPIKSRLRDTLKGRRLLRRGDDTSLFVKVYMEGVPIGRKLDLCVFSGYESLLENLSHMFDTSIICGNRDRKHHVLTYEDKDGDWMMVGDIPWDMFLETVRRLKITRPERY
# UniProt O23661, sequence (whole entry, looked up): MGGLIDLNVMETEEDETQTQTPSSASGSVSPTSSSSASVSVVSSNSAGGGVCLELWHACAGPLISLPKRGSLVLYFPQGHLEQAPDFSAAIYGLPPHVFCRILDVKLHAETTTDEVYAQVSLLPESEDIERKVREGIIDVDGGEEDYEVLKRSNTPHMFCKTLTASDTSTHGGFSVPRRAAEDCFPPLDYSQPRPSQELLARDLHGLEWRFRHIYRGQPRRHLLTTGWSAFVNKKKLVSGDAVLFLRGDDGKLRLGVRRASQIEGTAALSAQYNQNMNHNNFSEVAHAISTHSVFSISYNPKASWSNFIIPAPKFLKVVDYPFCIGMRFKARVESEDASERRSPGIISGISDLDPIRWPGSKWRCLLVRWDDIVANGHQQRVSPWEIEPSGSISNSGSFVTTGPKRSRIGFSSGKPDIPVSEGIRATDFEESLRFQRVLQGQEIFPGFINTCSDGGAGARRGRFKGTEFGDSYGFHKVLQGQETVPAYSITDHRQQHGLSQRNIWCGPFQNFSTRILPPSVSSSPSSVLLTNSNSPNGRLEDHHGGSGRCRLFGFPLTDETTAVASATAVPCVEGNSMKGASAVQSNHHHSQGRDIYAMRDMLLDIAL
# UniProt Q84WU6, sequence (whole entry, looked up): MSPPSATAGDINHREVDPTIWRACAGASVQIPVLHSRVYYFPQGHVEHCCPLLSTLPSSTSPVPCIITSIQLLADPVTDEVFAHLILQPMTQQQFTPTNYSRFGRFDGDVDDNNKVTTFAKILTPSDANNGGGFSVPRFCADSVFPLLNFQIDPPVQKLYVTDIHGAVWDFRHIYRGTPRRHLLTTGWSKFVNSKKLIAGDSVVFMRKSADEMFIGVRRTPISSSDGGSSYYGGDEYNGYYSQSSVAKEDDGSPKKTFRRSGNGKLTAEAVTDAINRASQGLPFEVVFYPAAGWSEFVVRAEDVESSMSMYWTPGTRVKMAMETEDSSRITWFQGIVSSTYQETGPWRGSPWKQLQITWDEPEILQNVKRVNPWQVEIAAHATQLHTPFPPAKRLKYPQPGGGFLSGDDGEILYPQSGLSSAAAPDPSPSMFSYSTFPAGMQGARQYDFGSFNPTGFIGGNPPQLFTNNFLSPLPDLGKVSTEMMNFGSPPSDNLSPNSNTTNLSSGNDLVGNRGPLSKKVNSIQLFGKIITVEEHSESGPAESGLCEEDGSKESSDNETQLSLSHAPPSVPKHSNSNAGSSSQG
# UniProt Q9C5X0, sequence (whole entry, looked up): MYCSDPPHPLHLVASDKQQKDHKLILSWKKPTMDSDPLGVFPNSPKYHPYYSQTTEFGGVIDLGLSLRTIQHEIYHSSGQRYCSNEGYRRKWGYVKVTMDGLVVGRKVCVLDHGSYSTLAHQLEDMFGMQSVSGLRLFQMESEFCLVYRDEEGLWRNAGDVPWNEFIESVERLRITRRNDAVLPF
# UniProt Q8RYC6, sequence (whole entry, looked up): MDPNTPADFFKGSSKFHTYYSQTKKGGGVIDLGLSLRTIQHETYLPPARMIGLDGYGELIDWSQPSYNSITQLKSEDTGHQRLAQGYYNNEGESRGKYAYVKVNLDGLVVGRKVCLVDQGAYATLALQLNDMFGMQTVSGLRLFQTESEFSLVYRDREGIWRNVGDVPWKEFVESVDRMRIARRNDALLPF
# UniProt P93024, sequence (whole entry, looked up): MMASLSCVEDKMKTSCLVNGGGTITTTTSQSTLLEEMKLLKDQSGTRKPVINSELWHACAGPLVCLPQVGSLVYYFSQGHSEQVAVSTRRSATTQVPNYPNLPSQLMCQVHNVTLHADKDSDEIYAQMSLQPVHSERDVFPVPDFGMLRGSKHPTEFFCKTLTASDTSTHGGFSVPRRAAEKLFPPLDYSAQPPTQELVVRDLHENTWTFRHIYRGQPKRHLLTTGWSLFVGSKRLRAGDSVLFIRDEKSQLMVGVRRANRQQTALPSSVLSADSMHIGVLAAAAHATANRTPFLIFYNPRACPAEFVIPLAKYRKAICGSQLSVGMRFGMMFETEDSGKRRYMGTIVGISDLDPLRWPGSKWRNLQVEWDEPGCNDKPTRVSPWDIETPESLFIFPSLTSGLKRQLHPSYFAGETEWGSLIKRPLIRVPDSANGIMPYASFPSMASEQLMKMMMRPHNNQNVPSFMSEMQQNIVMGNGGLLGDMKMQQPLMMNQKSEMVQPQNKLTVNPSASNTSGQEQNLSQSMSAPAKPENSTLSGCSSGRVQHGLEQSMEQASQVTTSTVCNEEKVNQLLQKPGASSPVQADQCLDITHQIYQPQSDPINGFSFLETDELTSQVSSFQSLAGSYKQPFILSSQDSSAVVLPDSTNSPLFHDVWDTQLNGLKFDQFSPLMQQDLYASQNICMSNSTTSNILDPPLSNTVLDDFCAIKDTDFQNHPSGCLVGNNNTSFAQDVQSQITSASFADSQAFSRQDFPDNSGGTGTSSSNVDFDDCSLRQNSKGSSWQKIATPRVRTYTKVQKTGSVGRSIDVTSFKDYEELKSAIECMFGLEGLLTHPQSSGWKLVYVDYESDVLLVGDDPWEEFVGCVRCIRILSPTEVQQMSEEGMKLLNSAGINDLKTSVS

# Set 1
# Target: Centromere-binding protein 1, full length, His-tagged (CBF1, Saccharomyces cerevisiae, UniProt P17106, residues 1-351)
# UniProt P17106, sequence (whole entry, looked up): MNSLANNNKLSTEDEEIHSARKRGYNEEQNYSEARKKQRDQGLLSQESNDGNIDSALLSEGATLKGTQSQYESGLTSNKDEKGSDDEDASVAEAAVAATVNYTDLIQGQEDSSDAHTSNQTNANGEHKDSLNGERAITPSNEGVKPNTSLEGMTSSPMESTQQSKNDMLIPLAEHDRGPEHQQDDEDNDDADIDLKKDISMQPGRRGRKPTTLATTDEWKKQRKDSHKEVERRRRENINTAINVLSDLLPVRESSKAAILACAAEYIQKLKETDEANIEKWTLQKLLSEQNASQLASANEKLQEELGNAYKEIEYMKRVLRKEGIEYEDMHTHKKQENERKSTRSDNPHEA
# Method: competition protein-binding microarray
# Form: double-stranded DNA, one strand shown
# Matrix: in vitro
# Tested at: 2 µM
# Setting: whole 60-bp probe, lowest competitor level
# Together with: Pho4 competitor, 0.05 µM
# Reading: higher = stronger binding
# Constant ends, left off below: … GTCTTGATTCGCTTGACGCTGCTG
Oligonucleotide,fluorescence intensity [a.u.]
GATAATTGAGTGTGTTCGTCATAATTTTTAATAAGG,84.3
ACATATTTTAGAAAACACGTGAAGGATACGTAAATA,1760
CTGCGCTGCGGCCAGCCCGTGAGACCACCCGAGGGA,63.1
AAAAATGGTGGAAAGTGCGTGCGGATTTCTCGAGCC,70.9
CACTATCCATCCTGGCACGTGTTCCTGGCCACCTTG,1810
CTTTCCCGATCTTGGAAGGTGGGTGTAGCACATTTG,72.3
TAAAATGACTGACAGCACGGGACCTTTGAAATTTTG,415
CGCCGGGCGGCTTTGCACGTTTGAACAAGTATATCC,70.2

# Set 2
# Sequence: B1 (IAA29)
# Method: two-hybrid
# Reading: higher = firmer interaction
# B1: IAA29 (Arabidopsis thaliana, UniProt Q93WC4); chain MELDLGLSLSPHKSSKLGFNFDLNKHCAIEGAASCLGTEKLRFEATFGLGNVEENCYMPKQRLFALNGQPNEEDEDPLESESSIVYDDEEENSEVVGWPPVKTCMIKYGSYHHRHIRNHHHCPYHHRGRRITAMNNNISNPTTATVGSSSSSSISSRSSMYVKVKMDGVAIARKVDIKLFNSYESLTNSLITMFTEYEDCDREDTNYTFTFQGKEGDWLLRGDVTWKIFAESVHRISIIRDRPCAYTRCLF
partner,conditions,how to read,positive tests
"ARF17 (Arabidopsis thaliana, UniProt Q84WU6)",weak activation fusion,relative to: out of 3 tests,2
"IAA32 (Arabidopsis thaliana, UniProt Q8RYC6)",,relative to: out of 4 tests,0
"ARF5 788-902 (Arabidopsis thaliana, UniProt P93024)",,relative to: out of 4 tests,4
"IAA31 (Arabidopsis thaliana, UniProt Q8H174)",,relative to: out of 2 tests,0
"ETT (Arabidopsis thaliana, UniProt O23661)",,relative to: out of 2 tests,0
"IAA34 (Arabidopsis thaliana, UniProt Q9C5X0)",,relative to: out of 4 tests,2

# Set 3
# Target: ATF7, bZIP domain (human)
# Method: DHFR protein complementation
# Matrix: yeast
# Setting: single substitutions, most at no-binding floor
# Relative to: wild-type JUN-FOS pair
# Reading: higher = stronger binding
# Parent: JUN, bZIP domain (human); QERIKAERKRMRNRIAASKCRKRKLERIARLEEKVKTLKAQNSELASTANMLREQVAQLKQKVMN; partner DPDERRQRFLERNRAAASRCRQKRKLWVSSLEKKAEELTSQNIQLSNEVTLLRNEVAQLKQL
Change,binding fitness [natural log]
E33T,-1.15
A49S,-1.46
E54L,-1.16
R30H,-0.735
A29Y,-0.732
L45D,-1.51
K34C,-1.15
R53G,-1.46

# Further values, each from its own experiment
Sequence,target,assay,system,conditions,quantity,result
VIMWYNYLF,"HLA class I histocompatibility antigen, A alpha chain, allele A*80:01 (Homo sapiens, UniProt P04439)",peptide-MHC binding,peptide,concentration not given,binding,inactive

# For quick reference, copied from above (set 3):
Change,binding fitness [natural log]
E33T,-1.15
A49S,-1.46
E54L,-1.16
